Literature values that unrelated publications cite.
Each line is one published result; not all experiments were run side by side. ± gives the spread as reported.
Chain of UniProt P62937 (whole entry, looked up): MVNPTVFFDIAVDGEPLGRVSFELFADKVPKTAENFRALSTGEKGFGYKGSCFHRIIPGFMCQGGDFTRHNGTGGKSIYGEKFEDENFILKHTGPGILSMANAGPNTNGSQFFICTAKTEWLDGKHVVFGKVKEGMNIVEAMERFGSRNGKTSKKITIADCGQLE

Molecule	tested on	assay	test system	measurement	result
CC(CN1c2ccccc2Sc2ccccc21)N(C)C (centres unmarked)	Ebola virus	pseudovirus entry, HIV pseudotype reporter	A549	IC50	19.4 µM
CC(C)(C)[C@H](NC(=O)C(F)(F)F)C(=O)N1C[C@H]2[C@@H]([C@H]1C(=O)N[C@H](C#N)C[C@@H]1CCNC1=O)C2(C)C	Caco-2	cytotoxicity		CC50	> 100 µM
CN(C)CCOc1ccc(/C(=C(/CCCl)c2ccccc2)c2ccccc2)cc1	SARS-CoV	cytopathic effect	Vero E6	EC50	12 µM
capsid protein (Human immunodeficiency virus 1, UniProt O93182)	PPIA (Homo sapiens, UniProt P62937)	ITC		Kd	5.3 µM
CN(C)CCCN1c2ccccc2Sc2ccc(Cl)cc21	SARS-CoV	cytopathic effect	Vero E6	EC50	13 µM
C[C@@H]1CCO[C@H]2Cn3cc(C(=O)NCc4ccc(F)cc4F)c(=O)c(O)c3C(=O)N12	HIV-1	viral replication, single-round vector infection	IN G118R	EC50	0.0184 ± 0.0015 µM
CCN(CC)Cc1cc(Nc2ccnc3cc(Cl)ccc23)ccc1O	Ebola virus	viral replication	Vero E6, eGFP reporter	EC50	34 µM
C[C@H]1CO[C@@H]2Cn3cc(C(=O)NCc4ccc(F)cc4F)c(=O)c(O)c3C(=O)N12	HIV-1	viral replication, single-round vector infection	IN N155H	EC50	0.0022 ± 0.0003 µM

Repeated from above:
Molecule	tested on	assay	test system	measurement	result
CN(C)CCOc1ccc(/C(=C(/CCCl)c2ccccc2)c2ccccc2)cc1	SARS-CoV	cytopathic effect	Vero E6	EC50	12 µM
